Experimental data collected from several papers.
Every numbered part comes from another study and shows a few of its results, in no order. “And” joins repeats or separate records; there may be more than shown.
Sequence of UniProt Q9H2X6 (whole entry, looked up): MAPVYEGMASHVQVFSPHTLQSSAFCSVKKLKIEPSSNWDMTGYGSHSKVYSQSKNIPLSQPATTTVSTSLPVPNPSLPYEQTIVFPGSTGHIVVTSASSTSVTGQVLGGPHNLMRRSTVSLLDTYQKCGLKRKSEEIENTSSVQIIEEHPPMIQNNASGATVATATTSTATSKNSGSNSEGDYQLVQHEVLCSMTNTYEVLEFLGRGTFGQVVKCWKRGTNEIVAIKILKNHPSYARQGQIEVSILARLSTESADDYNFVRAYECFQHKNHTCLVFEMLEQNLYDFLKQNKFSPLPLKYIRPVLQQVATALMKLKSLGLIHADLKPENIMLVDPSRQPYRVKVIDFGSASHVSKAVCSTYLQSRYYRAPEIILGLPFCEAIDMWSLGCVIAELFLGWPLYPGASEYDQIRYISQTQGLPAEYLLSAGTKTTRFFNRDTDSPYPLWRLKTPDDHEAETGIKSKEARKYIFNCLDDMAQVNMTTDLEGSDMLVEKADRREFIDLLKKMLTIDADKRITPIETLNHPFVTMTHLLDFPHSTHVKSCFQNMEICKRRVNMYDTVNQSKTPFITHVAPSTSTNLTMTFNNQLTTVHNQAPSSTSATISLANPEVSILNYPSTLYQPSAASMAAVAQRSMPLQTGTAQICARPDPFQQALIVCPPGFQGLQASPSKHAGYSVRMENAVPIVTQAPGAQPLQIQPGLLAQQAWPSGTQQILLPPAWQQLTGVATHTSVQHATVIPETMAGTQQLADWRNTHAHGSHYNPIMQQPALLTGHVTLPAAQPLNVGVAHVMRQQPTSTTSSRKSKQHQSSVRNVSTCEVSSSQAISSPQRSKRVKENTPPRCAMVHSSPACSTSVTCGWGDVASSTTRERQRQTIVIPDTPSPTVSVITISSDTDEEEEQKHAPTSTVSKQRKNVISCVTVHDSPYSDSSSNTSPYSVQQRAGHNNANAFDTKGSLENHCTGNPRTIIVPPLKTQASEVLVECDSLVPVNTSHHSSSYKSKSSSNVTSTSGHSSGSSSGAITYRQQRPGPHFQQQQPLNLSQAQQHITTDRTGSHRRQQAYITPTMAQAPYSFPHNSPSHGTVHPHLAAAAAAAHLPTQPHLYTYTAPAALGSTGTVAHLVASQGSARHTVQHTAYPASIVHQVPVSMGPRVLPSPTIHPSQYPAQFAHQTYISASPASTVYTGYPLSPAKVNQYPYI
Sequence of UniProt Q16644 (whole entry, looked up): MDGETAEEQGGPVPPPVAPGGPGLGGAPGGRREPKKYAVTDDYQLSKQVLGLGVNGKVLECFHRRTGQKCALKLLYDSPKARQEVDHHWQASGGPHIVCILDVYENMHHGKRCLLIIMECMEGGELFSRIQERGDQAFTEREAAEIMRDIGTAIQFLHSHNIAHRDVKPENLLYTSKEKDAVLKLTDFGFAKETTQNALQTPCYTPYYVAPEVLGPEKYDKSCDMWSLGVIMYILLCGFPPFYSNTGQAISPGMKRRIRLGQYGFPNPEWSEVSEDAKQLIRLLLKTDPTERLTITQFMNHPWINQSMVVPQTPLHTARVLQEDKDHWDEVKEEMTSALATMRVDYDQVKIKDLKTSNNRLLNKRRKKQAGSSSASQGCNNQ
Sequence of UniProt P54760 (whole entry, looked up): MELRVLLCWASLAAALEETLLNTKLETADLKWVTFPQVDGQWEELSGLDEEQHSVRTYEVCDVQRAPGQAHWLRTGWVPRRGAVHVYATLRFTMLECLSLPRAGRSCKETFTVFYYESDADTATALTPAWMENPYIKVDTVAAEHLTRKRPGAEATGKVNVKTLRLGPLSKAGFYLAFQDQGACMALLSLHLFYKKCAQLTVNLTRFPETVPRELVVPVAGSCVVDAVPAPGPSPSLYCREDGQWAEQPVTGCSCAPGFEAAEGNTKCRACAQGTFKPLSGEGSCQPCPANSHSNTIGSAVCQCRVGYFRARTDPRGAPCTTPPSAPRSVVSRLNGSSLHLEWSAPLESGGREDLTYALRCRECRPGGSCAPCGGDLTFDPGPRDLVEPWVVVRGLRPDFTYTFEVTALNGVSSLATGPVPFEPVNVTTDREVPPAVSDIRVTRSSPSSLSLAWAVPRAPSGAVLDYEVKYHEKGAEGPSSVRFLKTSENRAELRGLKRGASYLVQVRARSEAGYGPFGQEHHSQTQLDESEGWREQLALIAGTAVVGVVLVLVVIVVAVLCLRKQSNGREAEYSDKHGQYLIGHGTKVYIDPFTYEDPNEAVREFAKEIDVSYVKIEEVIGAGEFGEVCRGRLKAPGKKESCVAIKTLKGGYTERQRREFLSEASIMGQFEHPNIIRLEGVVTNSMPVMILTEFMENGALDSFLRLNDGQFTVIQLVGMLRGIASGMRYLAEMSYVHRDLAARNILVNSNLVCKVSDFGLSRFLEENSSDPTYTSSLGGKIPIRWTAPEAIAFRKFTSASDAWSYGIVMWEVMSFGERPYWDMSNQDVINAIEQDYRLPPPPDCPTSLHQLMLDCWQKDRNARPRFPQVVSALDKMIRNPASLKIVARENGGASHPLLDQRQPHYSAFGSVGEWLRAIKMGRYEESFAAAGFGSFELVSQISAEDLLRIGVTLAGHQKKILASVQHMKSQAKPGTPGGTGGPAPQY
Sequence of UniProt Q9UEE5 (whole entry, looked up): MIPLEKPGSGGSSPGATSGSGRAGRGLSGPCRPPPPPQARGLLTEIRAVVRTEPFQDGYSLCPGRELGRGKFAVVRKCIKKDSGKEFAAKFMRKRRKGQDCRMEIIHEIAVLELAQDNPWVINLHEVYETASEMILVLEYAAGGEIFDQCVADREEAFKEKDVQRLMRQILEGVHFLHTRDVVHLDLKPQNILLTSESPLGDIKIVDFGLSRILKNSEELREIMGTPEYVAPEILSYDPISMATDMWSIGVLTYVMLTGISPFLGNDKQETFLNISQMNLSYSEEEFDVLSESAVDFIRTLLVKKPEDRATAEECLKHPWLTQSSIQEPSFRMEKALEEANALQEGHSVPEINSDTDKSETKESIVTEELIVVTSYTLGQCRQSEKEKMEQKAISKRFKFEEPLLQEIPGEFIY
Sequence of UniProt O43781 (whole entry, looked up): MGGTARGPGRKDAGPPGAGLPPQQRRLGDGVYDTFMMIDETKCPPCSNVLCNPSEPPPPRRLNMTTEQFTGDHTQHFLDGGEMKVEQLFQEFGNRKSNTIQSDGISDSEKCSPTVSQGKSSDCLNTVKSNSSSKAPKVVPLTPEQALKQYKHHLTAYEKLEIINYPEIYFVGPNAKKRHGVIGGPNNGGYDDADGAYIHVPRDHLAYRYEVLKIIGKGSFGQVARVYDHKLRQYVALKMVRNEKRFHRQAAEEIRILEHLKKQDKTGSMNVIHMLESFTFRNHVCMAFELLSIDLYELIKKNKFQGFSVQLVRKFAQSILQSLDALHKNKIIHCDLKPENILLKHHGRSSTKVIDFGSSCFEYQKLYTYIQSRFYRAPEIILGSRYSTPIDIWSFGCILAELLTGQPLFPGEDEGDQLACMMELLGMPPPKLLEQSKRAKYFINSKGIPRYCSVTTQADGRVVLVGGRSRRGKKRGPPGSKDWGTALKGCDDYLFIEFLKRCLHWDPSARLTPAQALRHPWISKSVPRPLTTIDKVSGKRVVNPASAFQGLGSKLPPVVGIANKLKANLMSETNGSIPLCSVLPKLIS
Sequence of UniProt P22612 (whole entry, looked up): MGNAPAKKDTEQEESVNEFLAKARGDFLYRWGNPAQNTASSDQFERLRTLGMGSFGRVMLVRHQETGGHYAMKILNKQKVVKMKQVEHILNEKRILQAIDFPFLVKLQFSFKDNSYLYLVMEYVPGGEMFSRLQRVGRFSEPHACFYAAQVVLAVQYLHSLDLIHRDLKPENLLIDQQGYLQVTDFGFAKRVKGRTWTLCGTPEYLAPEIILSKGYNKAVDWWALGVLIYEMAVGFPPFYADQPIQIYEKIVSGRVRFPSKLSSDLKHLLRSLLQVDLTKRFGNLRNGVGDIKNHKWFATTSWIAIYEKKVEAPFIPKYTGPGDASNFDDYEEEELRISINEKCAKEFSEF

Series 1 — mode: agonist
Target: Beta-1 adrenergic receptor (ADRB1, Homo sapiens, UniProt P08588)
Sequence of UniProt P08588 (whole entry, looked up): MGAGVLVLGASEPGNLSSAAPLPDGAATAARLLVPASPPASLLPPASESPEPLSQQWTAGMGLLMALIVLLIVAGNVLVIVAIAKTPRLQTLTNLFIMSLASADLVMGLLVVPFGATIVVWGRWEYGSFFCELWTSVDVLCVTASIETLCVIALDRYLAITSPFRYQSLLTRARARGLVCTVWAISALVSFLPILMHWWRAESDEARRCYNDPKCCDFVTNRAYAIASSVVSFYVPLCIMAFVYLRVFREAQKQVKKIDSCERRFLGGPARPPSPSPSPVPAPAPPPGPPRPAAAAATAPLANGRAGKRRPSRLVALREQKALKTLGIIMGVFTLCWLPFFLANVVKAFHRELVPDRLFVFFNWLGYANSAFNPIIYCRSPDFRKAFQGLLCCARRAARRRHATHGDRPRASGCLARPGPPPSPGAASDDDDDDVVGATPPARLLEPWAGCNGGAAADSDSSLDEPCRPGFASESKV
SMILES	EC50 [µM]
Cc1nc2c(c(N[C@@H]3COCC[C@H]3OCc3ccccn3)n1)CCC2	≥ 100
c1cc(-c2cc3c(ccn3Cc3ccncc3)c(N3CCOCC3)n2)c2[nH]ncc2c1	≥ 100
CCOc1cc(N2CC=C(c3c[nH]c4ccc(OC)cc34)CC2)ncn1	≥ 100
CN(Cc1ccc(F)cc1)c1ccc2ncc(Nc3cccc(O)c3)n2n1	≥ 100
O=c1c(Cl)c(NC(c2ccccc2)c2cccs2)cnn1-c1ccc(C(F)(F)F)cn1 (stereo not drawn)	≥ 100
O=C1CCCN1CCC1CCN(Cc2cccc(OCC(O)CN3CCOCC3)c2)CC1 (stereo not drawn)	≥ 100
O=C(Nc1ccc([C@@H](O)[C@H]2COCC(=O)N2CCCc2ccccc2)cc1)C1CC1	≥ 100
Cc1noc2c(NCCc3ccccn3)cc(-c3ccccc3)nc12	≥ 100

Series 2 — observed: enzyme activity; mode: inhibitor; concentration: 10 µM
Target: Calcium/calmodulin-dependent protein kinase type II subunit alpha (CAMK2A, Homo sapiens, UniProt Q9UQM7)
Sequence of UniProt Q9UQM7 (whole entry, looked up): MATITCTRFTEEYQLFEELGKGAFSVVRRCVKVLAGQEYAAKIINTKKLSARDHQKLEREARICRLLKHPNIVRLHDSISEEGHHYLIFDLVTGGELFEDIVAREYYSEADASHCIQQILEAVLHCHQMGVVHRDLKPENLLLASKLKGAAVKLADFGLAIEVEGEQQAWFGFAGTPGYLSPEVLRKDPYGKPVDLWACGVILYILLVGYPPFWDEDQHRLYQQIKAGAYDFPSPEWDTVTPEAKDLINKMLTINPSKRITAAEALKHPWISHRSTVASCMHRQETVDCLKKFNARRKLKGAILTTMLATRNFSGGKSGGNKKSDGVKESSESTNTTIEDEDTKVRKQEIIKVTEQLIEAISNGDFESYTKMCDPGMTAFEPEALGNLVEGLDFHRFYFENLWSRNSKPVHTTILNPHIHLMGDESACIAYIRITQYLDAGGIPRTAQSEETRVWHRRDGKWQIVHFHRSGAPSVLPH
Structure (SMILES)	inhibition
COc1cc(O[C@@H]2O[C@H](CO)[C@@H](O)[C@H](O)[C@H]2O)c2c(O)c(C(C)=O)c(C)cc2c1	6%
CCCCCCCCO	-1%
CCC(=O)C(C)=O	-22%
CC(=C(CCO)SSCC1CCCO1)N(C=O)Cc1cnc(C)nc1N (stereo in doubt)	1%
O=c1ccoc2cc(O)ccc12	-27%
CC(=O)CC/C=C(\C)CC/C=C(\C)CC/C=C(\C)CCC=C(C)C	-2%
O=C1c2c(O)c(=O)ccn2N([C@@H]2c3ccccc3SCc3c2ccc(F)c3F)[C@@H]2COCCN12	3%
CNC(=O)c1c(C)oc2cc(Oc3ncnc4cc(OC)c(OC)cc34)ccc12	-16%
CC(=O)c1ccccc1C	13%

Series 3
SMILES: Cc1ncc(-c2cc3cc(-c4c(C)ccc(O)c4C)cnc3[nH]2)cn1
Target: Membrane-associated tyrosine- and threonine-specific cdc2-inhibitory kinase (PKMYT1, Homo sapiens, UniProt Q99640)
Residues (Q99640 1-499): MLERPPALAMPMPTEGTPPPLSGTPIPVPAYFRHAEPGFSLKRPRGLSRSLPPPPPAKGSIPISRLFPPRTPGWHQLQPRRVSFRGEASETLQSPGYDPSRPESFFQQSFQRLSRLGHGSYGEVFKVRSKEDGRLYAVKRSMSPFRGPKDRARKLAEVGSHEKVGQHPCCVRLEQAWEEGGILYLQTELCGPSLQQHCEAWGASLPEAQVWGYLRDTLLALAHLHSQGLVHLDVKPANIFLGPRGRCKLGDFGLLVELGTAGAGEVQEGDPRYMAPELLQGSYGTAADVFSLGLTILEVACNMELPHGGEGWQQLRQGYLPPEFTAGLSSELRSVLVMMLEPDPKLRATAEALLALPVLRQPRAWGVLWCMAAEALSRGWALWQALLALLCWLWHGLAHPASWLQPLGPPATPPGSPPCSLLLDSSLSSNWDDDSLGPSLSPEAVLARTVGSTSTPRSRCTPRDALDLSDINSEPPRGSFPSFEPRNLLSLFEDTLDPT
observed	method	concentration	inhibition
–	–	0.01372 µM	40.4%
cell-free assay	TR-FRET	4.57 nM	14.3%
–	–	0.00152 µM	-2.51% and -0.27%
–	–	0.1235 µM	89.8%
–	–	3.333 µM	104%
cell-free assay	TR-FRET	13.72 nM	39.4%

Series 4 — Structure (SMILES): Cc1nc(-c2ccccc2)c(-c2ccncc2)o1; observed: enzyme activity; mode: inhibitor; concentration: 0.5 µM; baseline: control
target	remaining activity [%]
Ribosomal protein S6 kinase alpha-5 (RPS6KA5, Homo sapiens, UniProt O75582)	107
Ephrin type-B receptor 1 (EPHB1, Homo sapiens, UniProt P54762)	107
Cyclin-dependent kinase 1, with cyclin B (CDK1, Homo sapiens, UniProt P06493)	90.8
Tyrosine-protein kinase Srms (SRMS, Homo sapiens, UniProt Q9H3Y6)	102
Homeodomain-interacting protein kinase 2 (HIPK2, Homo sapiens, UniProt Q9H2X6)	95.5
Dual specificity tyrosine-phosphorylation-regulated kinase 3 (DYRK3, Homo sapiens, UniProt O43781)	106
3-phosphoinositide-dependent protein kinase 1 (PDPK1, Homo sapiens, UniProt O15530)	96.9
MAP kinase-activated protein kinase 3 (MAPKAPK3, Homo sapiens, UniProt Q16644)	94.7
Tyrosine-protein kinase receptor UFO (AXL, Homo sapiens, UniProt P30530)	91.1
Ephrin type-B receptor 4 (EPHB4, Homo sapiens, UniProt P54760)	84.8
Homeodomain-interacting protein kinase 4 (HIPK4, Homo sapiens, UniProt Q8NE63)	102
Ephrin type-A receptor 4 (EPHA4, Homo sapiens, UniProt P54764)	112
Testis-specific serine/threonine-protein kinase 2 (TSSK2, Homo sapiens, UniProt Q96PF2)	90.1
Cyclin-dependent kinase 4, with cyclin D3 (CDK4, Homo sapiens, UniProt P11802)	107
Mitogen-activated protein kinase kinase kinase kinase 4 (MAP4K4, Homo sapiens, UniProt O95819)	85.1
Serine/threonine-protein kinase WNK3 (WNK3, Homo sapiens, UniProt Q9BYP7)	106
Serine/threonine-protein kinase 17A (STK17A, Homo sapiens, UniProt Q9UEE5)	99.5
cAMP-dependent protein kinase catalytic subunit gamma (PRKACG, Homo sapiens, UniProt P22612)	108
Tyrosine-protein kinase ABL1 (ABL1, Homo sapiens, UniProt P00519)	100

Some of these lines once more (series 4):
target	remaining activity [%]
Homeodomain-interacting protein kinase 4 (HIPK4, Homo sapiens, UniProt Q8NE63)	102
Tyrosine-protein kinase ABL1 (ABL1, Homo sapiens, UniProt P00519)	100
Cyclin-dependent kinase 1, with cyclin B (CDK1, Homo sapiens, UniProt P06493)	90.8
Ephrin type-B receptor 4 (EPHB4, Homo sapiens, UniProt P54760)	84.8
